Results collected from several papers.
Each line is one published result; not all experiments were run side by side. ± gives the spread as reported.

Fc1ccc(/C=N/Nc2nnc(N/N=C/c3ccc(F)cc3)c3ccccc23)cc1
haemolysis (haemolysis; human; 100 mM, 45 min): 19 to 35%

CC(C)C[C@@H]1NC(=O)[C@H](CCCN)NC(=O)[C@H](C(C)C)NC(=O)[C@@H]2CCCN2C(=O)[C@@H](Cc2ccccc2)NC(=O)[C@H](CC(C)C)NC(=O)[C@H](CCCN)NC(=O)[C@H](C(C)C)NC(=O)[C@@H]2CCCN2C(=O)[C@@H](Cc2ccccc2)NC1=O
retention time (RP-HPLC C18; acetonitrile gradient): 8.51 min

[18F]CCn1cc(COc2ccc(-c3nncnn3)cc2)nn1
intact tracer (radio-TLC; mouse, plasma; 30 min): 90%

Nc1ncnc2c1nc(-n1nnc3c1CCC1C(CO)C1CC3)n2C1OC(CO)C(O)C1O (mixture of isomers)
absorption maximum (methanol): 270 nm

C(=N\Nc1nnc(N/N=C/c2ccco2)c2ccccc12)/c1ccco1
haemolysis (haemolysis; human; 100 mM, 45 min): 19 to 35%

CC(=O)NC(Cc1c[nH]c2ccccc12)C(=O)NC(CCC(=O)C=[N+]=[N-])C(=O)O (centres unmarked)
concentration ratio (C57BL/6 CES1-/- mouse EL4 tumour, tumour and intestinal tissue; subcutaneous, 2.6 mg/kg of prodrug, DON prodrug dosed; relative to: intestinal tissue over tumour): 15 fold

NCCCN1CC(=O)N(Cc2cc(C(F)(F)F)cc(C(F)(F)F)c2)CC(=O)N(CCCN)CC(=O)N(Cc2cc(C(F)(F)F)cc(C(F)(F)F)c2)CC(=O)N(CCCN)CC(=O)N(Cc2cc(C(F)(F)F)cc(C(F)(F)F)c2)CC1=O
retention time (RP-HPLC C18; acetonitrile gradient): 7.38 min

Cc1nnc(-c2ccc(OCc3cn(CCOCCOCCOCC[18F])nn3)cc2)nn1
intact tracer (radio-TLC; mouse, plasma; 30 min): 85%

C(=N\Nc1nnc(N/N=C/c2ccccc2)c2ccccc12)/c1ccccc1
haemolysis (haemolysis; human; 100 mM, 45 min): 19 to 35%

Cc1ccc(Oc2ccc(-c3ccn4c(CC5CC5)nnc4c3C(F)(F)F)cc2F)c(C)n1
concentration (male Sprague-Dawley rat, brain; subcutaneous, 10 mg/kg, 4 h, single dose): 61 ng/g

CCCCCC(=O)OCn1cc(F)c(=O)[nH]c1=O
half-life (HCl or phosphate buffer; 80 µg/mL, pH 7.4, 37 °C, chemical stability): 112 ± 11.9 h

O[C@@H]1[C@@H](O)[C@H](n2cc(COc3ccc(-c4nncnn4)cc3)nn2)O[C@H](C[18F])[C@H]1O
intact tracer (radio-TLC; mouse, plasma; 30 min): 76%

N#Cc1c(-c2ccc(OCC3CC3)c(Cl)c2)ccn2c(CC(F)(F)F)cnc12
compound metabolized (human liver microsomes; 5 µM, 15 min): 16%

Clc1nnc(N/N=C/c2ccc(Br)cc2)c2ccccc12
haemolysis (haemolysis; human; 100 mM, 45 min): 11.1%

CCCCn1ccn2c(-c3ccc(Oc4ccnc(C)c4)c(F)c3)c(C)nc2c1=O
brain concentration (Sprague Dawley rat male, brain; oral, 10 mg/kg, 4 h): 244 ng/g

O=[N+]([O-])c1cccc(/C=N/Nc2nnc(N/N=C/c3cccc([N+](=O)[O-])c3)c3ccccc23)c1
haemolysis (haemolysis; human; 1 mM, 45 min): 8.7%

CCCCn1ccn2c(-c3ccc4[nH]ccc4c3)c(C)nc2c1=O
brain concentration (Sprague Dawley rat male, brain; oral, 10 mg/kg, 2 h): 10 ng/g

O=C(CCc1cn(CCOCCOCCOCC[18F])nn1)Nc1ccc(-c2nnc(-c3ccccn3)nn2)nc1
tissue uptake (PET; BALB/c nude mouse, LS174T xenograft, heart; intravenous, 1 h, added: CC49-TCO 72 h before): 2.5 ± 0.7 %ID/g

COc1ccc(CNc2ccc(-c3ccn4c(CC5CC5)nnc4c3C(F)(F)F)cc2F)cn1
concentration (male Sprague-Dawley rat, brain; subcutaneous, 10 mg/kg, 2 h, single dose): 478 ng/g

NCCC(=O)N1Cc2ccccc2-c2c(nnn2-c2cn(C3OC(CO)C(O)C3O)c(=O)[nH]c2=O)-c2ccccc21 (mixture of isomers)
absorption maximum (methanol): 276 nm

Excerpt of the above:
O=C(CCc1cn(CCOCCOCCOCC[18F])nn1)Nc1ccc(-c2nnc(-c3ccccn3)nn2)nc1
tissue uptake (PET; BALB/c nude mouse, LS174T xenograft, heart; intravenous, 1 h, added: CC49-TCO 72 h before): 2.5 ± 0.7 %ID/g

Nc1ncnc2c1nc(-n1nnc3c1CCC1C(CO)C1CC3)n2C1OC(CO)C(O)C1O (mixture of isomers)
absorption maximum (methanol): 270 nm
